Assay results of several laboratories.
Numbered parts are unrelated; each lists some results of a single study. Substitutions count along the parent as printed.

Set 1 — method: RNA Bind-n-Seq; molecule type: RNA; matrix: in vitro; concentration: 365 nM; reference: no-protein control; reading: higher = stronger binding
Target: RNA binding protein fox-1 homolog 2, RRM domain, GST-SBP tag (RBFOX2, Homo sapiens, UniProt O43251-10, residues 100-194)
Setting: natural RNA segment, single round, ends assumed
`GGGAGUUCUACAGUCCGACGAUCCCUAUAUUACUCUCCUGGGAUCUGAGUUUCUGCAGGUCAUUUGUAUGUAGGACCAGGAGUAUCUCCUCAGGUGACCAGUUUUGGGGACCCGUAUGUGGCAAAUUCUAAGCUGGAAUUCUCGGGUGCCAA` — result for “RBNS enrichment (R)”: 1.4.
`GGGAGUUCUACAGUCCGACGAUCGACCUGUGCUGUCACUGGGCAUAGGACAGCGGCAUCACGGUUGCAUUCCCAUUGGACUCAUGCACCUCCCGGAUGGUUUUUGUUUUUUUCGGGGGUUCUUUGGGGUUUGUUGGAAUUCUCGGGUGCCAA`: “RBNS enrichment (R)” 2.41.
`GGGAGUUCUACAGUCCGACGAUCGAAUGGAGGAGGGAAGUUGAAGGAGCCACCUCCUCUGUCUACCCACCCGUCCCCUUCACGCCCUUGACACUAAGGAGUGGGGGGCCCUGGACUGCCCCUUCCUCCCCCAUUGGAAUUCUCGGGUGCCAA` — result for “RBNS enrichment (R)”: 0.453.
Under “RBNS enrichment (R)”, `GGGAGUUCUACAGUCCGACGAUCCCCCCAUCCCUCACUUCUGGGCUGUCAUGCUCCUGGUGUGCCCCUUGCACUGGGGCUGGCUGGGUUGGAAAGUGGGCUGGACUUCAGCUGCCUUUCUACCCCCAAUGGCAUGGAAUUCUCGGGUGCCAA` is recorded as 0.563.

Set 2 — method: RNA Bind-n-Seq; molecule type: RNA; matrix: in vitro; concentration: 20 nM; setting: 6-mer, flanks averaged, single round; together with: 150 mM KCl; reference: input library; reading: higher = stronger binding
Target: TAR DNA-binding protein 43, full length, His tag (TARDBP, Homo sapiens, UniProt Q13148, residues 1-414)
Under “6-mer enrichment (R)”, `ACGGCA` is recorded as 0.892.
`CAGUAC`: “6-mer enrichment (R)” 0.648.
Under “6-mer enrichment (R)”, `UUUCUG` is recorded as 0.633.
For `CUUUCU`, “6-mer enrichment (R)” read 0.585.

Set 3 — target: CCNB3, cyclin fold, Cln2 fusion (human); method: yeast growth competition, sequencing; matrix: yeast; setting: weak parent motif; reference: not given; reading: higher = stronger binding
Starting sequence: CDC6 docking peptide (human); TLKGRRLVFDNQL; partner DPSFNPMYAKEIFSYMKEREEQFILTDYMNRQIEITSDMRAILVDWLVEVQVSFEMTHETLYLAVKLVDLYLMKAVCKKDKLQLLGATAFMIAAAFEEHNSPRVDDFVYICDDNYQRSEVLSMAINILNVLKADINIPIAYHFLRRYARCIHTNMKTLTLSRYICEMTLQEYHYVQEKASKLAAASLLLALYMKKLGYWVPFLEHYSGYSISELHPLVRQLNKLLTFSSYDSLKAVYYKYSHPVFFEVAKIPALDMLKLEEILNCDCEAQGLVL
Under “normalised enrichment score”, `D10Y` is recorded as 0.217.
Under “normalised enrichment score”, `T1F` is recorded as -0.0336.
`L13V` — result for “normalised enrichment score”: 0.198.
`K3M` — result for “normalised enrichment score”: 0.239.

Other studies, line by line
`PhoQ, residues 284 288 289 292 302 303 SSTLSG` has a fold induction of 6.69 (PhoP, residues 12 14 15 18 19 NQAHL (Escherichia coli, UniProt P23836); Sort-seq, item: YFP reporter; E. coli; PhoQ-PhoP variant library, together with: 10 µM Mg2+; reference: high Mg2+ state, higher = stronger signaling).

Some of these lines once more (set 3):
`K3M` — result for “normalised enrichment score”: 0.239.
Under “normalised enrichment score”, `T1F` is recorded as -0.0336.
